Published values of several laboratories.
Each line is one published result; not all experiments were run side by side. Several values in a cell are separate wells, animals, samples, runs or records. Numbers after ± are the reported error.

Molecule	test	system	setting	how to read	measurement	result
CC1=NS(=O)(=O)c2cc(Cl)ccc2N1	mitochondrial swelling	BALB/cByJ female mouse liver mitochondria	30 min, added: succinate + rotenone	reference: CaCl2 maximal swelling	EC20	> 200 µM
CNCc1ccc(-c2[nH]c3cc(F)cc4c3c2CCNC4=O)cc1	–	human patients, plasma	oral, 500 mg once daily, day 15, steady state, arithmetic mean	–	half-life	20.8 h
COc1cc2c(c(N3CCN(C)CC3)c1)O[C@@H](C(=O)Nc1ccc(N3CCOCC3)cc1)CC2	–	brain stem or hippocampus	dose-normalized	reference: rat over dog	brain concentration ratio	~2 fold
CCOc1ccc(Cc2cc([C@]34OC[C@](CO)(O3)[C@@H](O)[C@H](O)[C@H]4O)ccc2Cl)cc1	14C microtracer urinary excretion	human, fasted	oral	reference: test over reference geometric means	fraction absorbed ratio	> 100% and ~100%
CCOc1ccc2c(c1)C(C)=CC(C)(C)N2	LC-MS/MS	cattle, Holstein, subcutaneous fat	oral, 50 mg/kg complete feed, 42 days, highest value	–	residue concentration	95.9 ng/g
O=C1CCc2ccc(OCCCCN3CCN(c4cccc(Cl)c4Cl)CC3)cc2N1	–	healthy Japanese men, CYP2D6 EM, plasma	oral, 3 mg aripiprazole single, added: paroxetine 20 mg/day	–	AUC	1.37 ± 0.211 µg·h/mL
CCCC[C@H](NC(C)=O)C(=O)N[C@H]1CCC(=O)NC[C@@H](C(=O)N[C@@H](Cc2c[nH]c3ccccc23)C(N)=O)NC(=O)[C@H](CCCNC(=N)N)NC(=O)[C@@H](Cc2ccccc2)NC(=O)[C@H](Cc2c[nH]cn2)NC1=O	–	CD Sprague Dawley rat, male, plasma	subcutaneous, 1.0 mg/kg daily, day 14	–	Cmax	0.572 µg/mL
Cc1cc(NS(=O)(=O)c2ccc(N)cc2)no1	cytochrome c release, ELISA	BALB/cByJ female mouse liver mitochondria	30 min	reference: alamethicin maximal release	EC20	> 400 µM
CC[C@@]1(O)C(=O)OCc2c1cc1n(c2=O)Cc2cc3c(CN(C)C)c(O)ccc3nc2-1	–	human patients, plasma	oral, 4 mg, day 15, geometric mean, added: pazopanib 800 mg	–	AUC(0-inf)	0.102 µg·h/mL
RLQLKL	substrate	peptide, mouse tumour extract 2%	5 µM, 4 h, 37 °C	–	cleavage	> 90%
Nc1nc(NC2CC2)c2ncn([C@H]3C=C[C@@H](CO)C3)c2n1	–	HIV-infected children and adolescents, Tanner stage 3-5, plasma	oral, 8 mg/kg	–	CL/F	1.1 L/h/kg
Cc1nc(Nc2ncc(C(=O)Nc3c(C)cccc3Cl)s2)cc(N2CCN(CCO)CC2)n1	cytochrome c release, ELISA	BALB/cByJ female mouse liver mitochondria	30 min	reference: alamethicin maximal release	EC20	168 µM
CN1CC[C@@H](NC(=O)Nc2ccc(C#N)cc2)C[C@@H]1c1nc2ccccc2[nH]1	–	moderate hepatic impairment, plasma	oral, 100 mg single dose, fasted, geometric mean	–	AUC(0-t), unbound	0.985 µg·h/mL
COc1cccc2c1C(=O)c1c(O)c3c(c(O)c1C2=O)C[C@@](O)(C(=O)CO)C[C@@H]3O[C@H]1C[C@H](N)[C@H](O)[C@H](C)O1	–	mouse, E0771 tumour-bearing, plasma	intravenous, 92 µmol/kg	–	Tmax	5 min
Cc1[nH]nc(C(F)(F)F)c1Cc1sc2c(c1C(=O)N1C[C@](C)(O)CO1)c(=O)n(C)c(=O)n2C(C)C	TMDD model	BALB/c mice, female, plasma	intravenous and oral	–	elimination rate constant	0.000314 ± 2.5e-05 s⁻¹

For quick reference, copied from above:
Molecule	test	system	setting	how to read	measurement	result
Cc1[nH]nc(C(F)(F)F)c1Cc1sc2c(c1C(=O)N1C[C@](C)(O)CO1)c(=O)n(C)c(=O)n2C(C)C	TMDD model	BALB/c mice, female, plasma	intravenous and oral	–	elimination rate constant	0.000314 ± 2.5e-05 s⁻¹
